Measurements of several laboratories.
Each line is one published result; not all experiments were run side by side. Several values in a cell are separate wells, animals, samples, runs or records.
Organism: SARS-CoV-2

Molecule = Cc1nn(-c2ccc(Cl)cc2)c2c1C(c1ccc(Cl)c(Cl)c1)C(C#N)=C(N)O2 (centres unmarked); test system = Vero; conditions = 1 µM; quantity = viral titre; value = 1.02e+06 IU/mL
Molecule = Cc1ccccc1NC(=N)Nc1ccccc1C; assay = viral replication, RT-qPCR; test system = A549 expressing ACE2; quantity = IC50; value = > 10 µM
Molecule = FCOC(C(F)(F)F)C(F)(F)F; assay = viral replication; test system = Huh-7; quantity = IC50; value = > 2 µM
Molecule = CCCCSCCCNC(=O)C1CCN(Cc2nc(-c3ccc(CC)cc3)oc2C)CC1; assay = cytopathic effect, cell-based CPE; test system = USA_WA1/2020; conditions = round 2, 5-point dilution; quantity = efficacy; value = 99%
Molecule = CC(=O)[C@H]1CC[C@H]2[C@@H]3CCC4=CC(=O)CC[C@]4(C)[C@H]3CC[C@]12C; conditions = concentration not given, Paris laboratory; quantity = viral replication inhibition; value = inactive
Molecule = CC(C)(C)[C@H](NC(=O)C(F)(F)F)C(=O)N1C[C@H]2[C@@H]([C@H]1C(=O)N[C@H](C#N)C[C@@H]1CCNC1=O)C2(C)C; assay = viral replication; test system = Vero E6; conditions = 1.25 µM; quantity = inhibition; value = 13.7% and 25.3%
Molecule = Cc1cccc(/C=N/Nc2cc(N3CCOCC3)nc(OCCc3ccccn3)n2)c1; test system = Vero C1008, USA-WA1/2020; scale = relative to: CC50 over EC50; quantity = selectivity index; value = 108
Molecule = CC1CCN(CCCC(=O)c2ccc(F)cc2)CC1; assay = viral replication, RT-qPCR; test system = A549-ACE2; quantity = IC50; value = > 10 µM
Molecule = CC(=O)NC1(c2ccccc2)CCN(CC[C@H](CN(C)C(=O)c2ccccc2)c2ccc(Cl)c(Cl)c2)CC1; assay = viral replication, GFP plate reader screen; test system = BetaCov/Belgium/GHB-03021/2020; conditions = cell-based; quantity = EC50; value = > 100 µM
Molecule = Cc1nn(-c2ccc(Cl)cc2)c2c1C(c1ccc(Cl)cc1Cl)C(C#N)=C(N)O2 (centres unmarked); assay = RT-qPCR, measured: viral RNA; test system = Vero; conditions = 10 µM; scale = higher means less virus; quantity = Ct value; value = 25.4 cycles
Molecule = CCN(CC)CCNC(=O)c1ccc(-c2nc(CN3CCc4ccccc43)c(C)o2)cc1; assay = cytopathic effect; test system = USA_WA1/2020; conditions = retest, 8-point, duplicates; quantity = efficacy; value = 82.8%
Molecule = O=S(=O)(NCCNC/C=C/c1ccc(Br)cc1)c1cccc2cnccc12; conditions = concentration not given, Paris laboratory; quantity = viral replication inhibition; value = inactive
Molecule = CCN(CC)CCOc1ccc(-c2nc3cc(Cl)ccc3s2)cc1; assay = viral replication, GFP plate reader screen; conditions = cell-based; quantity = EC50; value = 3.89 µM
Molecule = COc1ccc(CC(=O)NC2CCN(Cc3ccc(-c4ccccc4OC)cc3)C2)cc1 (centres unmarked); assay = cytopathic effect; test system = USA_WA1/2020; conditions = round 1, 5-point; quantity = maximum response; value = 88%
Molecule = Cc1nn(-c2ccc(Cl)cc2)c2c1C(c1ccc(Br)cc1)C(C#N)=C(N)O2 (centres unmarked); test system = Vero; conditions = 10 µM; quantity = viral titre; value = 611000 IU/mL
Molecule = CC(=O)OCC(=O)[C@@]1(O)CC[C@H]2[C@@H]3CCC4=CC(=O)CC[C@]4(C)[C@@]3(F)[C@@H](O)C[C@@]21C; assay = viral replication; test system = Huh-7; quantity = IC50; value = > 2 µM
Molecule = COc1cccc(-c2ccccc2NC(=O)C2CCN(Cc3ccccc3F)CC2)c1; assay = cytopathic effect; test system = USA_WA1/2020; conditions = retest, 8-point, duplicates; quantity = efficacy; value = 55.8%
Molecule = Cc1nn(-c2ccc(Cl)cc2)c2c1C(c1ccc(-c3ccccc3)cc1)C(C#N)=C(N)O2 (centres unmarked); test system = Vero C1008; conditions = 10 µM; scale = relative to: positive control; quantity = viral titre log reduction; value = 0.304 log10
Molecule = CC(C)(C)c1cc(O)ccc1O; assay = viral replication; test system = Huh-7; quantity = IC50; value = > 2 µM
Molecule = CN1CCC(COc2cnc(-c3cccc(Cn4nc(-c5cccc(C#N)c5)ccc4=O)c3)nc2)CC1; assay = viral replication, high-content imaging screen; test system = BetaCov/Belgium/GHB-03021/2020; conditions = cell-based; quantity = EC50; value = > 100 µM
Molecule = COc1ccc2cc1Oc1ccc(cc1)C[C@H]1c3cc(c(OC)cc3CCN1C)Oc1c(OC)c(OC)cc3c1[C@H](C2)N(C)CC3; assay = viral replication; test system = Huh-7-ACE2, USA-WA1/2020; quantity = EC90; value = 1.66 µM
Molecule = Cc1nn(-c2ccc(Cl)cc2)c2c1C(c1ccc(I)cc1)C(C#N)=C(N)O2 (centres unmarked); test system = Vero; conditions = 10 µM; quantity = viral titre; value = 442000 IU/mL
Molecule = Cc1ccc2nc(C3CCCN(Cc4cccc(-c5cccnc5)c4)C3)[nH]c(=O)c2c1 (centres unmarked); assay = cytopathic effect, cell-based CPE; test system = USA_WA1/2020; quantity = AC50; value = 14.1 µM
Molecule = CCN(CCO)CCCC(C)Nc1ccnc2cc(Cl)ccc12 (centres unmarked); assay = viral replication; test system = Vero E6; conditions = concentration not given; quantity = activity class; value = active
Molecule = CN1CCCN(C(c2ccccc2)c2ccc(Cl)cc2)CC1 (centres unmarked); assay = viral replication, GFP plate reader screen; conditions = cell-based; quantity = EC50; value = > 20 µM
Molecule = CO[C@@H]1CC/C=C/c2cccc(c2)[C@@H](CCNC(=O)OC(C)(C)C)OC(=O)[C@@H]2CCCN(N2)C(=O)[C@H](C)NC(=O)[C@H](C(C)C)NC(=O)[C@@H]1C; conditions = concentration not given, Paris laboratory; quantity = viral replication inhibition; value = inactive
Molecule = Cc1nn(-c2ccc(Cl)cc2)c2c1C(c1ccc(Cl)cc1)C(C#N)=C(N)O2 (centres unmarked); test system = Vero C1008; conditions = 1 µM; scale = relative to: positive control; quantity = viral titre log reduction; value = 0.06 log10
Molecule = O=C(O[C@@H]1Cc2c(O)cc(O)cc2O[C@@H]1c1cc(O)c(O)c(O)c1)c1cc(O)c(O)c(O)c1; assay = viral replication; test system = Vero E6; conditions = 3.125 µM; scale = relative to: mean of replicates; quantity = CPE inhibition; value = 0%
Molecule = CCCN(CCC)CCc1ccc(OC)c(OCCc2ccccc2)c1; assay = viral replication, anti-nucleoprotein immunostaining; test system = Vero E6; quantity = IC50; value = 3.72 µM
Molecule = CC[C@H](NC(=O)[C@H](CS(=O)(=O)CC1CC1)N[C@@H](c1ccc(F)cc1)C(F)(F)F)C(=O)C(=O)NC1CC1; assay = viral replication; test system = Huh-7-ACE2, USA-WA1/2020; quantity = EC90; value = > 2.5 µM
Molecule = CCOC1O[C@H]([C@@H](COCc2ccccc2)OCc2ccccc2)[C@H](OCc2ccccc2)[C@H]1O (some centres unmarked); assay = viral replication, GFP plate reader screen; conditions = cell-based; quantity = EC50; value = > 50.1 µM
Molecule = O=C(/C=C/c1ccc(O)c(O)c1/C=C/c1ccc(O)c(O)c1)O[C@H](Cc1ccc(O)c(O)c1)C(=O)O; assay = viral replication; test system = Vero E6; conditions = 3.125 µM; scale = relative to: mean of replicates; quantity = CPE inhibition; value = 0%
Molecule = C#C[C@]1(OC(C)=O)CC[C@H]2[C@@H]3CCC4=CC(=NO)CC[C@@H]4[C@H]3CC[C@@]21CC (mixture of isomers); assay = viral replication, high-content imaging screen; conditions = cell-based; quantity = EC50; value = > 100 µM
Molecule = Cc1cc(OCCN2CCOCC2)nn1-c1ccc2ccccc2c1; conditions = concentration not given, Paris laboratory; quantity = viral replication inhibition; value = inactive
Molecule = Cc1ccc(NS(=O)(=O)c2cccc(C(=O)NC3CCN(c4ncnc5[nH]cnc45)CC3)c2)cc1; test system = A549-ACE2, Wuhan-Hu-1; conditions = 0.03048 µM; scale = relative to: untreated; quantity = relative infection; value = 101%
Molecule = CCC(CC)COC(=O)[C@H](C)N[P@](=O)(OC[C@H]1O[C@@](C#N)(c2ccc3c(N)ncnn23)[C@H](O)[C@@H]1O)Oc1ccccc1; assay = viral replication; test system = Huh-7-ACE2, USA-WA1/2020; quantity = EC90; value = 0.0063 µM
Molecule = NS(=O)(=O)Cc1noc2ccccc12; assay = viral replication; test system = Huh-7; quantity = IC50; value = > 2 µM
Molecule = Cc1nn(-c2ccc(Cl)cc2)c2c1C(c1ccc(F)cc1F)C(C#N)=C(N)O2 (centres unmarked); assay = RT-qPCR, measured: viral RNA; test system = Vero; conditions = 1 µM; scale = higher means less virus; quantity = Ct value; value = 23.7 cycles
Molecule = COc1cccc(CNC(=O)C2CCN(Cc3cc4ccccc4n3Cc3ccccc3)CC2)c1OC; assay = cytopathic effect; test system = USA_WA1/2020; conditions = retest, 8-point, duplicates; quantity = efficacy; value = 0%
Molecule = COc1ccc(C[C@@H]2c3cc(Oc4cc(C[C@@H]5c6cc(O)c(OC)cc6CCN5C)ccc4O)c(OC)cc3CCN2C)cc1; assay = viral replication; test system = Vero E6; conditions = 100 µM; scale = relative to: mean of replicates; quantity = CPE inhibition; value = 80%
Molecule = CCCCNC(=O)C1CCCN(Cc2nc(-c3ccc(Cl)cc3)oc2C)C1 (centres unmarked); assay = cytopathic effect; test system = USA_WA1/2020; conditions = retest, 8-point, duplicates; quantity = efficacy; value = 20%
Molecule = CN1CC[C@@]23CCCC[C@@H]2[C@@H]1Cc1ccc(O)cc13; assay = viral replication; test system = Vero E6; conditions = inactive set pIC50 4; quantity = IC50; value = > 10 µM
Molecule = C=CC[N+]1([C@H]2C[C@H]3[C@@H]4CC[C@H]5C[C@H](O)[C@@H](N6CCOCC6)C[C@]5(C)[C@H]4CC[C@]3(C)[C@H]2OC(C)=O)CCCC1; assay = viral replication; test system = Huh-7; quantity = IC50; value = > 2 µM
Molecule = CN1CCN(CCc2ccc(Cl)c(Cl)c2)CC1; assay = viral replication, anti-nucleoprotein immunostaining; test system = Vero E6; quantity = IC50; value = > 10 µM
Molecule = Atovaquone; assay = viral replication; test system = Huh-7; quantity = IC50; value = > 2 µM
Molecule = Cc1ccc(Nc2nccc(N(C)c3ccc4c(C)n(C)nc4c3)n2)cc1S(N)(=O)=O; test system = Vero E6; conditions = concentration not given, NYC laboratory; quantity = viral replication inhibition; value = inactive
Molecule = Nc1ncnc2c1nnn2[C@@H]1C(F)=C(CO)[C@@H](O)[C@H]1O; assay = spike protein immunostaining; test system = Vero; scale = relative to: CC50 over EC50; quantity = selectivity index; value = > 8.2
Molecule = CCC1CCCCN1CCCNC(=O)c1sc2nc(C)cc(C)c2c1-n1cccc1 (centres unmarked); assay = cytopathic effect, cell-based CPE; test system = USA_WA1/2020; conditions = round 1, 5-point dilution; quantity = AC50; value = 12.6 µM
Molecule = COc1cc2c(cc1OC)CN(CCc1ccc(NC(=O)c3cc(OC)c(OC)cc3NC(=O)c3cnc4ccccc4c3)cc1)CC2; assay = viral replication, anti-nucleoprotein immunostaining; test system = Vero E6; quantity = IC50; value = > 10 µM
Molecule = OC(CCCN1CCc2c(c3cc(F)ccc3n2-c2ccc(F)cc2)C1)c1ccc(F)cc1 (centres unmarked); assay = viral replication, high-content imaging screen; conditions = cell-based; quantity = EC50; value = > 100 µM
Molecule = CC(C)=CCc1c(O)ccc(C(=O)/C=C/c2ccc(O)cc2)c1O; assay = viral replication; test system = Vero E6; conditions = 0.7812 µM; scale = relative to: mean of replicates; quantity = CPE inhibition; value = 0%
Molecule = CC(C)(C)NC[C@H](O)COc1ccccc1C1CCCC1; assay = viral replication, high-content imaging screen; conditions = cell-based; quantity = EC50; value = 20 µM
Molecule = Nc1cc(N2CCCCC2)nc(N)[n+]1[O-]; conditions = concentration not given, Paris laboratory; quantity = viral replication inhibition; value = inactive

A few entries again:
Molecule = COc1ccc(C[C@@H]2c3cc(Oc4cc(C[C@@H]5c6cc(O)c(OC)cc6CCN5C)ccc4O)c(OC)cc3CCN2C)cc1; assay = viral replication; test system = Vero E6; conditions = 100 µM; scale = relative to: mean of replicates; quantity = CPE inhibition; value = 80%
Molecule = CCCCNC(=O)C1CCCN(Cc2nc(-c3ccc(Cl)cc3)oc2C)C1 (centres unmarked); assay = cytopathic effect; test system = USA_WA1/2020; conditions = retest, 8-point, duplicates; quantity = efficacy; value = 20%
Molecule = CN1CC[C@@]23CCCC[C@@H]2[C@@H]1Cc1ccc(O)cc13; assay = viral replication; test system = Vero E6; conditions = inactive set pIC50 4; quantity = IC50; value = > 10 µM
Molecule = C=CC[N+]1([C@H]2C[C@H]3[C@@H]4CC[C@H]5C[C@H](O)[C@@H](N6CCOCC6)C[C@]5(C)[C@H]4CC[C@]3(C)[C@H]2OC(C)=O)CCCC1; assay = viral replication; test system = Huh-7; quantity = IC50; value = > 2 µM
Molecule = CN1CCN(CCc2ccc(Cl)c(Cl)c2)CC1; assay = viral replication, anti-nucleoprotein immunostaining; test system = Vero E6; quantity = IC50; value = > 10 µM
Molecule = Atovaquone; assay = viral replication; test system = Huh-7; quantity = IC50; value = > 2 µM
